# Experimental data pooled from the literature.
# A part holds a random share of what one study measured. Positions count from the first letter of the parent shown.
# UniProt Q8LAL2, sequence (whole entry, looked up): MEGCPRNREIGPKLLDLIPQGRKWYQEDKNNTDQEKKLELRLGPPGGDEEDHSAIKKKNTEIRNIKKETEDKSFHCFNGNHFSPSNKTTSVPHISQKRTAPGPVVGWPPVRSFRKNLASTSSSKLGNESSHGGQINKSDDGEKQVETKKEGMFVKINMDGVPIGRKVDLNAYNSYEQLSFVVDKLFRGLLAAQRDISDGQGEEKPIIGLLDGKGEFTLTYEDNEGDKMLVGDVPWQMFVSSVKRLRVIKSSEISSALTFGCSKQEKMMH
# UniProt Q9FKM7, sequence (whole entry, looked up): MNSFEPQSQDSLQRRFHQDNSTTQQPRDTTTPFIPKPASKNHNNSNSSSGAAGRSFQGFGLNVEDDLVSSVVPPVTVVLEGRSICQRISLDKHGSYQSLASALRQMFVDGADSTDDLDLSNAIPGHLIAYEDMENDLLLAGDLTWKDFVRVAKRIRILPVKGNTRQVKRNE
# UniProt O24407, sequence (whole entry, looked up): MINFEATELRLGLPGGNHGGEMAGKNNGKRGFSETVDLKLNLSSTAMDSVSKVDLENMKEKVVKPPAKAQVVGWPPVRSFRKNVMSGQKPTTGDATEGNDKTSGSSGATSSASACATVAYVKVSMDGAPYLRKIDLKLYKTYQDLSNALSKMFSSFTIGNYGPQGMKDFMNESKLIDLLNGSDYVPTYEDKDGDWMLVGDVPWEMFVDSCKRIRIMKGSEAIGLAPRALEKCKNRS
# UniProt Q9C966, sequence (whole entry, looked up): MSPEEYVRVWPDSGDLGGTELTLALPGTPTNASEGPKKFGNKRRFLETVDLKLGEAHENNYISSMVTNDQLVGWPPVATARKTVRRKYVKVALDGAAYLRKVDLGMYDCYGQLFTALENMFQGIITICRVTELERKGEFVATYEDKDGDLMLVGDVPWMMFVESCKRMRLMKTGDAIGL
# UniProt Q9XED8, sequence (whole entry, looked up): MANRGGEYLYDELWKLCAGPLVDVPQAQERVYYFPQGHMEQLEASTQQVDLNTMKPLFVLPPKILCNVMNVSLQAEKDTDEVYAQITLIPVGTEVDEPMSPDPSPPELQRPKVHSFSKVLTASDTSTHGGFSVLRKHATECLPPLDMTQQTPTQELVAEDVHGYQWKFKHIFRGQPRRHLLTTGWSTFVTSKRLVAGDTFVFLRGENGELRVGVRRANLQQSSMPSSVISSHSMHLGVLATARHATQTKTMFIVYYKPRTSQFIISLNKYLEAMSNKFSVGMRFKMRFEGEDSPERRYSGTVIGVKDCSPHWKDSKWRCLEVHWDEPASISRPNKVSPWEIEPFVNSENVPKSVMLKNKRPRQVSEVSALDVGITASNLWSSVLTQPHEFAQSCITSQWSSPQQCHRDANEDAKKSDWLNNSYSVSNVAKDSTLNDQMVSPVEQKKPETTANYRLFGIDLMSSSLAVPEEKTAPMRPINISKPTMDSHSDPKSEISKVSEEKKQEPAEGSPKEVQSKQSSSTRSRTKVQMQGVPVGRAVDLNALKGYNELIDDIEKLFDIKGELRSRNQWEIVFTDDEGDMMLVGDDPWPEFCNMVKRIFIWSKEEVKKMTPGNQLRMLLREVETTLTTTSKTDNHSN
# UniProt O24408, sequence (whole entry, looked up): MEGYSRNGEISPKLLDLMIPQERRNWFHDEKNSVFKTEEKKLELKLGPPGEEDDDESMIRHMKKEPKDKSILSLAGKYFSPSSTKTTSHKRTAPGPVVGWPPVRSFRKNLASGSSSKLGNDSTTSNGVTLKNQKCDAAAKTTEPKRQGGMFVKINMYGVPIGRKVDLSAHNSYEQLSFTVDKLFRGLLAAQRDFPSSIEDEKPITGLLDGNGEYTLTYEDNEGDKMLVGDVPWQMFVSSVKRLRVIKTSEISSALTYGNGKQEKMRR

# Sample 1
# Target: ABI1, truncated, D143A, DHFR fusion (Arabidopsis thaliana)
# Technique: DHFR PCA, deep sequencing
# Matrix: yeast
# Setting: methotrexate growth selection, single substitutions
# Added: (+)-ABA 0 µM
# Relative to: wild-type fitted maximum
# Direction: higher = stronger binding
# Parent: PYL1, truncated, DHFR fusion (Arabidopsis thaliana); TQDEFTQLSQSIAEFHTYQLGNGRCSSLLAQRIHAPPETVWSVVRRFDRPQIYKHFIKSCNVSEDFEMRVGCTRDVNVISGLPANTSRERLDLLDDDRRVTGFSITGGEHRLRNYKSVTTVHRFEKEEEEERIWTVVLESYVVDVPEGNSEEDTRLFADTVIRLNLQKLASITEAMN; partner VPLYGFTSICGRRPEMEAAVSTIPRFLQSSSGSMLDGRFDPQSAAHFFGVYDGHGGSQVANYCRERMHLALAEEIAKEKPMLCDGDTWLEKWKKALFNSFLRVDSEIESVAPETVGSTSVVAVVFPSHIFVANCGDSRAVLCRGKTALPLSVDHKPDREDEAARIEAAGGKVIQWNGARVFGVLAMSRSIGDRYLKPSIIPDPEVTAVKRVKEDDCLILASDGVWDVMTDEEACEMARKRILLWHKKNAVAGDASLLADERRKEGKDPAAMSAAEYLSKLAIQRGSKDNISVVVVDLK
Change,relative binding score [%]
G23M,3.62
R74P,1.72
E14Q,16
P36C,4.03
L169A,-0.296
M68D,3.19
K116F,-3.27
E4K,4.19
L112P,5.9
L94G,-3.44
I172A,-2.63
L91G,-3.77
Q51S,3.81
V121W,-2.13
K116N,4.88
N114P,3.24
T119P,-5.07
F5N,-8.1
C72H,1.24
N165C,2.95
E130M,12
R98A,2.72
S140M,3.23

# Sample 2
# Target: Prothrombin, mature alpha-thrombin (F2, Homo sapiens, UniProt P00734)
# Technique: aptamer microarray, sandwich
# Form: DNA with 2'F-ANA
# Matrix: in vitro
# Concentration: 200 nM
# Setting: whole 15-mer aptamer, many near background
# Added: Cy3 exosite-II aptamer, 400 nM
# Direction: higher = stronger binding
# Oligonucleotide: GGTTGGTGTGGTTGG
Modification,mean fluorescence intensity [a.u.]
2'F-ANA at 3 4 6 7 9 10 11 12 14 15,303
2'F-ANA at 1 2 5 6 8 9 14,43.2
2'F-ANA at 1 2 6 7 8 9 10 15,55.2
2'F-ANA at 4 5 6 8 9 11 12 15,106
2'F-ANA at 1 2 4 6 8 10 11 15,60.6
2'F-ANA at 3 5 6 7 9 12 13 15,132
2'F-ANA at 2 3 6 7 8 9 10 13 15,290
2'F-ANA at 1 5 6 15,54.7
2'F-ANA at 2 5 6 8 12 13 15,164
2'F-ANA at 9 11,526
2'F-ANA at 6 7 10 12 13 14,109
2'F-ANA at 3 10 14 15,403
2'F-ANA at 1 2 3 7 12 13 14,90.1
2'F-ANA at 1 2 3 7 8 10 11 13 14,53.1
2'F-ANA at 2 4 6 9 10 13 14 15,58.5
2'F-ANA at 2 10 15,134
2'F-ANA at 1 2 9 10 12 13 15,63.7
2'F-ANA at 1 3 4 5 7 9 11 12 13 14,49.9
2'F-ANA at 2 3 6 7 10 13 14,268
2'F-ANA at 2 3 4 6 7 8 10 13 14,166
2'F-ANA at 1 2 4 7 8 9 14,55.1
2'F-ANA at 2 4 7 9 10 11 14,77.4
2'F-ANA at 1 2 3 4 6 7 8 9 10 11 13 15,55.2
2'F-ANA at 1 5 6 7 8 9 12 13 15,93.2

# Sample 3
# Target: CCNF, cyclin fold, Cln2 fusion (human)
# Technique: yeast growth competition, sequencing
# Matrix: yeast
# Setting: strong parent motif
# Relative to: not given
# Direction: higher = stronger binding
# Parent: PKMYT1 docking peptide (human); SFEPRNLLSLFED
Change,normalised enrichment score
SFEMRNLLSLFED [P4M],-0.5
SAEPRNLLSLFED [F2A],-0.118
SFEPRNLLSLFES [D13S],1.58
SFEPTNLLSLFED [R5T],-0.452
SCEPRNLLSLFED [F2C],1.66
SFETRNLLSLFED [P4T],-0.321
SFECRNLLSLFED [P4C],0.0627
SFPPRNLLSLFED [E3P],0.589
SFEPRNLLSLFCD [E12C],1.44
SFEPRNLLSDFED [L10D],0.648
SFEPHNLLSLFED [R5H],-1.43
SFMPRNLLSLFED [E3M],2.36
SFEPRNLYSLFED [L8Y],0.486
SFEPRVLLSLFED [N6V],0.362
SFEPRNLNSLFED [L8N],1.11
SLEPRNLLSLFED [F2L],1.21
GFEPRNLLSLFED [S1G],1.54
SFEPRNLDSLFED [L8D],-0.468

# Sample 4
# Molecule: B1 (IAA10)
# Technique: two-hybrid
# Direction: higher = firmer interaction
# B1: IAA10 (Arabidopsis thaliana, UniProt Q38828); chain MNGLQEVCSSSGSVMIGLPAEEDENAAHSSEDSSCPDESVSETELDLALGLSIGRRKVRSSLSSSSSSLTRESGTKRSADSSPAAASNATRQVAVGWPPLRTYRINSLVNQAKSLATEGGLSSGIQKETTKSVVVAAKNDDACFIKSSRTSMLVKVTMDGVIIGRKVDLNALDSYAALEKTLDLMFFQIPSPVTRSNTQGYKTIKETCTSKLLDGSSEYIITYQDKDGDWMLVGDVPWQMFLGSVTRLRIMKTSIGAGVGK
partner,conditions,how to read,positive tests
"ARF9 519-638 (Arabidopsis thaliana, UniProt Q9XED8)",weak activation fusion,relative to: out of 4 tests,2
"IAA26 (Arabidopsis thaliana, UniProt Q8LAL2)",,relative to: out of 2 tests,0
"IAA15 (Arabidopsis thaliana, UniProt Q9C966)",,relative to: out of 2 tests,2
"IAA33 (Arabidopsis thaliana, UniProt Q9FKM7)",,relative to: out of 2 tests,0
"IAA18 (Arabidopsis thaliana, UniProt O24408)",,relative to: out of 4 tests,4
"IAA16 (Arabidopsis thaliana, UniProt O24407)",,relative to: out of 4 tests,2

# Sample 5
# Target: JUND, bZIP domain (human)
# Technique: DHFR protein complementation
# Matrix: yeast
# Setting: single substitutions, most at no-binding floor
# Relative to: wild-type JUN-FOS pair
# Direction: higher = stronger binding
# Parent: JUN, bZIP domain (human); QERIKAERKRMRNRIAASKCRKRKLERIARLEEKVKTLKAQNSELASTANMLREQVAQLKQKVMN; partner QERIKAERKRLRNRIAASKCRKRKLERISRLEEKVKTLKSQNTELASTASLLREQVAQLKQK
Change,binding fitness [natural log]
E32R,-0.96
T48D,-0.895
Q58W,-1.14
Q41D,-1.18
I28R,-1.12
K39Y,-1.06
T48Q,-0.457
A29C,-1.08
M51A,-0.462
T37I,-0.563
S43L,-0.605
A40C,-1.03
A57G,-0.971
L59T,-0.807
I28E,-0.841
A40V,-0.826
A40Q,-0.398
T37G,-0.915
R30C,-0.823
K36F,-1.09
T48A,-0.791
E44M,-0.682
Q55H,-1.07
S43T,-0.585
Q41T,-0.989

# Sample 6
# Target: Sal-like protein 4, full length isoform A (SALL4, Homo sapiens, UniProt Q9UJQ4, residues 1-1053)
# UniProt Q9UJQ4, sequence (whole entry, looked up): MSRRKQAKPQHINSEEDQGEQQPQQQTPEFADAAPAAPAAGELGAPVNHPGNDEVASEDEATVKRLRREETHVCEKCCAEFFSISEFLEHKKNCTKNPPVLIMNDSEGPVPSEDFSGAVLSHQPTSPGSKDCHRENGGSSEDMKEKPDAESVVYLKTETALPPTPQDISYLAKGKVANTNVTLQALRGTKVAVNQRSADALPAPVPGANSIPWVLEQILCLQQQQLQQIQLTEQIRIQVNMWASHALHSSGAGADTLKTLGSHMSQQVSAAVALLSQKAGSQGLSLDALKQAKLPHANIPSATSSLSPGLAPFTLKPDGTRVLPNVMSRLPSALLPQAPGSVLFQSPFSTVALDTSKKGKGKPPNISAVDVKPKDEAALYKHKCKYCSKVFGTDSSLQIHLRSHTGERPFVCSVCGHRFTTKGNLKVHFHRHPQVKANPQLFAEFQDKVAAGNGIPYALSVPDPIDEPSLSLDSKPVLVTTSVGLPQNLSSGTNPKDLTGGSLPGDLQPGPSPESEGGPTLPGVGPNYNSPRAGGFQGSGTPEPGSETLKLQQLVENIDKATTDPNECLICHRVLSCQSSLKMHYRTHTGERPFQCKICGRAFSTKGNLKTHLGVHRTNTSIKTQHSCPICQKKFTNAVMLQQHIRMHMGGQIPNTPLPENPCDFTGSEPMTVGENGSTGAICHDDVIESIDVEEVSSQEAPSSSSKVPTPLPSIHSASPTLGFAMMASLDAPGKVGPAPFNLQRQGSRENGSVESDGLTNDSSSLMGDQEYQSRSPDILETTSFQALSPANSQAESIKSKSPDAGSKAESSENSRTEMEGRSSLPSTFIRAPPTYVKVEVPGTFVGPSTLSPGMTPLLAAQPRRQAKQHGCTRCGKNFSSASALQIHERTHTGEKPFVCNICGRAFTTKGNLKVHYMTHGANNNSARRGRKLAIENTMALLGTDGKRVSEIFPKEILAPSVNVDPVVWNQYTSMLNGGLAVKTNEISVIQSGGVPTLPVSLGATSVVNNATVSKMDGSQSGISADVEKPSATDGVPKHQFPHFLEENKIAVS
# Technique: universal PBM
# Form: double-stranded DNA, one strand shown
# Matrix: in vitro
# Concentration: 600 nM
# Setting: 8-mer, flanks averaged, mean of replicates
# Direction: higher = stronger binding
Oligonucleotide,E-score
ATGGTAAA,0.254
AATTTGCT,0.234
CTGATTTA,0.135
CGATTCAG,-0.0764
CTGCTAGC,-0.239
AATCTCTG,0.0506
ATTGCAAC,0.00985
GTGGACTA,-0.0462
AGACGGGG,-0.345
TAGTTTAA,0.222
CGATCAAC,-0.0308
GACTAAGC,-0.147
GCCGGACC,-0.384
ATATCGCA,0.107
CTAAGCGC,-0.215
ACCTGTTG,0.116
ACAGAGGA,-0.0422
AGTCTGAC,-0.0863
CAAAGCTA,0.174
GAGAACAA,0.132
AATGAACT,0.138
CGGACTTC,-0.146

# Excerpt of the above (sample 1):
Change,relative binding score [%]
M68D,3.19
K116F,-3.27
E4K,4.19
L112P,5.9
L94G,-3.44
I172A,-2.63
L91G,-3.77
Q51S,3.81
V121W,-2.13
K116N,4.88
N114P,3.24
T119P,-5.07
